Assay results of several laboratories.
Parts stem from different laboratories: compare values within a part only. Changes are numbered by the printed parent chain.

Study 1 — target: JUND, bZIP domain (human); method: DHFR protein complementation; medium: yeast; baseline: wild-type JUN-FOS pair; direction: higher = stronger binding
Setting: single substitutions, most at no-binding floor
Starting sequence: JUN, bZIP domain (human); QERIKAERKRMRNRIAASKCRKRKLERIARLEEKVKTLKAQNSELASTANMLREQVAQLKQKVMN; partner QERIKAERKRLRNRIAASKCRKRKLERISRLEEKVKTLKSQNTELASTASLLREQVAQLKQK
`A57Q` gave a binding fitness of -0.75 natural log.
`A29D` has a binding fitness of -1.06 natural log.
The binding fitness of `S47F` is reported as -0.718 natural log.
For `E33L`, the binding fitness was -0.802 natural log.
`K39C` has a binding fitness of -1 natural log.
With `E33H` the binding fitness was -0.936 natural log.
The binding fitness of `K34M` is reported as -0.371 natural log.
`R30F` has a binding fitness of -0.667 natural log.
The binding fitness of `A49R` is reported as -1.17 natural log.
`A46S` gave a binding fitness of -0.755 natural log.
`S43R` gave a binding fitness of -0.499 natural log.
For `K39D`, the binding fitness was -1.08 natural log.
For `K34W`, the binding fitness was -0.71 natural log.
The binding fitness of `A57D` is reported as -0.488 natural log.
The binding fitness of `S47H` is reported as -0.541 natural log.
`V56F` gave a binding fitness of -1.05 natural log.
With `N42H` the binding fitness was -0.937 natural log.
The binding fitness of `E32N` is reported as -1.14 natural log.
`E33S` has a binding fitness of -0.936 natural log.
For `S43M`, the binding fitness was -0.62 natural log.
The binding fitness of `A29R` is reported as -0.576 natural log.
`E54Q` has a binding fitness of -0.944 natural log.
For `S43K`, the binding fitness was -0.344 natural log.
The binding fitness of `I28A` is reported as -1.13 natural log.
`K39V` has a binding fitness of -0.623 natural log.

Study 2 — method: universal PBM; form: double-stranded DNA, one strand shown; medium: in vitro; concentration: not given; direction: higher = stronger binding
Target: Sal-like protein 4, full length isoform B (SALL4, Homo sapiens, UniProt Q9UJQ4-2, residues 1-616)
Setting: 8-mer, flanks averaged, mean of replicates
`CCGAGTAC` gave an E-score of -0.238.
`CAATATGC` has an E-score of 0.162.
With `ACCTTTTA` the E-score was 0.0709.
`AGTATTGC` gave an E-score of 0.105.
`CACTGACA` gave an E-score of -0.0318.
With `CTACTGAA` the E-score was -0.0402.
For `GACCGACC`, the E-score was -0.293.
The E-score of `ACCCGCCC` is reported as -0.188.
`CGCTATTA` has an E-score of 0.168.
With `GCGTGTAA` the E-score was 0.0113.
The E-score of `GGCCAAAC` is reported as -0.269.
`GATAGCCC` has an E-score of -0.187.
`ATGTTATG` gave an E-score of 0.342.
`AACCCCTA` has an E-score of -0.132.
`GCGTTCCA` has an E-score of -0.146.
The E-score of `AGATTCGA` is reported as -0.108.
`ACGGTTAG` gave an E-score of -0.0688.

Study 3 — target: CCNE2, cyclin fold, Cln2 fusion (human); method: yeast growth competition, sequencing; medium: yeast; setting: strong parent motif; baseline: not given; direction: higher = stronger binding
Starting sequence: GMNC docking peptide (human); KNAKRNLSSEFAN; partner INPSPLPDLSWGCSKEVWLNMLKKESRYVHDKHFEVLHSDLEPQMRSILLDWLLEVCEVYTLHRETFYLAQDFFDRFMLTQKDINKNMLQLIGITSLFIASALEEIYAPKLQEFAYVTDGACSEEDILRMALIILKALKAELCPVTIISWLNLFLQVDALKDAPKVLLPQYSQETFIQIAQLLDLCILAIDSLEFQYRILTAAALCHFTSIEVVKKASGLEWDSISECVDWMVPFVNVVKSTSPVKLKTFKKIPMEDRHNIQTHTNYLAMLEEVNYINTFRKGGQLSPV
`A12C`: “normalised enrichment score” 1.45.
`R5K` — result for “normalised enrichment score”: 0.408.
`E10M`: “normalised enrichment score” 1.29.
Under “normalised enrichment score”, `A3I` is recorded as 0.926.
`L7A`: “normalised enrichment score” 0.678.
Under “normalised enrichment score”, `N6S` is recorded as 0.513.
Under “normalised enrichment score”, `N2Q` is recorded as 1.23.
For `F11W`, “normalised enrichment score” read 1.12.
For `S8K`, “normalised enrichment score” read 0.784.
`A3F` — result for “normalised enrichment score”: 1.37.
Under “normalised enrichment score”, `R5Q` is recorded as 0.618.
Under “normalised enrichment score”, `A3H` is recorded as 0.709.
For `F11Q`, “normalised enrichment score” read 0.466.
`F11L` — result for “normalised enrichment score”: 1.02.
`N2V` — result for “normalised enrichment score”: 0.768.
Under “normalised enrichment score”, `L7M` is recorded as -0.0529.
Under “normalised enrichment score”, `F11T` is recorded as 0.823.
For `N6C`, “normalised enrichment score” read 0.266.
`A3P` — result for “normalised enrichment score”: -0.127.
`S8I` — result for “normalised enrichment score”: 2.27.
`A3S` — result for “normalised enrichment score”: 0.332.
`A12R` — result for “normalised enrichment score”: 1.43.
For `F11D`, “normalised enrichment score” read 0.738.
Under “normalised enrichment score”, `A12Y` is recorded as 0.913.
`L7E`: “normalised enrichment score” 0.311.

Study 4 — method: DHFR PCA, deep sequencing; medium: yeast; with: (+)-ABA 4.8 µM; baseline: wild-type fitted maximum; direction: higher = stronger binding
Target: ABI1, truncated, D143A, DHFR fusion (Arabidopsis thaliana)
Setting: methotrexate growth selection, single substitutions
Starting sequence: PYL1, truncated, DHFR fusion (Arabidopsis thaliana); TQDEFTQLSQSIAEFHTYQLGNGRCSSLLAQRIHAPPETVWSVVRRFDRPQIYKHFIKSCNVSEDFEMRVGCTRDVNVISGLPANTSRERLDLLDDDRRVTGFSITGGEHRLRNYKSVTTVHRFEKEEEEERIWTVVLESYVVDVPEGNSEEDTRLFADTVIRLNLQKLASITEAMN
Under “relative binding score”, `L8V` is recorded as 40.6%.
`L94S`: “relative binding score” 4.19%.
`S140E` — result for “relative binding score”: -4.6%.
`G108V` — result for “relative binding score”: -9.62%.
`S11R`: “relative binding score” 40.9%.
For `A158T`, “relative binding score” read 86%.
`A30S`: “relative binding score” 79.2%.
`R74G`: “relative binding score” -7.16%.
`P50L`: “relative binding score” -9.26%.
`N61G`: “relative binding score” 46.2%.
`D3P` — result for “relative binding score”: 75%.
`H55N`: “relative binding score” 65.8%.
`F157R` — result for “relative binding score”: 3.64%.
`S104Y` — result for “relative binding score”: -17.5%.
`F103L`: “relative binding score” -3.37%.
Under “relative binding score”, `V142S` is recorded as 69.4%.
For `S27T`, “relative binding score” read 5.64%.
For `A170T`, “relative binding score” read 29.5%.
Under “relative binding score”, `K54A` is recorded as -2.65%.

Study 5 — method: Sort-seq; item: YFP reporter; medium: E. coli; setting: PhoQ-PhoP variant library; with: 10 µM Mg2+; baseline: high Mg2+ state; direction: higher = stronger signaling
Molecule: PhoQ, residues 284 288 289 292 302 303 TTCLQL
The fold induction was 13.3 (PhoP, residues 12 14 15 18 19 SHWTV (Escherichia coli, UniProt P23836)).
It gave 9.88 for fold induction (PhoP, residues 12 14 15 18 19 STHWV (Escherichia coli, UniProt P23836)).
It gave 2.71 for fold induction (PhoP, residues 12 14 15 18 19 QYCSL (Escherichia coli, UniProt P23836)).

Study 6 — method: RNA Bind-n-Seq; form: RNA; medium: in vitro; concentration: 200 nM; setting: whole 134-nt RNA, ends assumed; with: 150 mM KCl; baseline: input library; direction: higher = stronger binding
Target: Fragile X messenger ribonucleoprotein 1, C-terminal low-complexity region (Fmr1, Mus musculus, UniProt P35922)
`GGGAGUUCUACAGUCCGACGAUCUCAAGUCCUGUGCUACACAUCGUAUGUACCGAAUCGGUUUGGAAAAAAAGGAGGAAAGUAUUAUGUUACGCCGUUCGGAUCUGCACUUCCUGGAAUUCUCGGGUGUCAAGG` has a log2 enrichment of -0.353.
`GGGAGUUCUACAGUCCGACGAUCUCAAGUCCUGUGCUACACAUCGUAUGUACCGAAUCGGGUUUGGUUUGGUUUGGGGAAAGUAUUAUGUUACGCCGUUCGGAUCUGCACUUCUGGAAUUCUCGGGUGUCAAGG` has a log2 enrichment of -0.453.
With `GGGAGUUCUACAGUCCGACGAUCUCAAGUCCUGUGCUACACAUCGUAUGUACCGAAUCGGUUUGGUUUGGGGUUUGGGAAAGUAUUAUGUUACGCCGUUCGGAUCUGCACUUCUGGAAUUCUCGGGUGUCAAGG` the log2 enrichment was -0.685.
`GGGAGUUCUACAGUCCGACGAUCACCAUGCAGGUGGGCAUCUUUGGGAAGAAAGGCAAGGGGGGGAUAGGGAGGGGGGUAACACUUUGGGAACAGGUGGUCCCAGGUCGUUUCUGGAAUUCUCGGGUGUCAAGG` has a log2 enrichment of 1.21.
`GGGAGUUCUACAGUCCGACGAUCCACAGACAACACGCACCCACACAGACACAGAGGGAAGGGGUUGCGAUGGGGACAGGGUGCACAGCAGGGCGGGGUAGGACCCCAGCCCCUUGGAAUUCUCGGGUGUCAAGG` gave a log2 enrichment of 0.864.
The log2 enrichment of `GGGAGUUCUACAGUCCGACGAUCUUCGACGGCGCCGGGCGAGUGGCUGUUGAGCGGCGCCGCGGGAGUUCCGCAGGUUUCCCGUGUUCGCAGCGGAGCCGGAGGCCAGCUGAAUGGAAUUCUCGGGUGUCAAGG` is reported as -2.46.
With `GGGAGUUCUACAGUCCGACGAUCUAAGUUUAGAGGAGGAUCUGAUGGAUAUGGCAGUGGACGUGGAUUUGGGGAUGGCUAUAAUGGGUAUGGAGGAGGACCUGGAGGUGGCAAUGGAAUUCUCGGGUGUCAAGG` the log2 enrichment was 0.253.
The log2 enrichment of `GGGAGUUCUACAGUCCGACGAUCUCAAGUCCUGUGCUACACAUCGUAUGUACCGAAUCGGUGGAAAAAAAGGUUUGGAAAGUAUUAUGUUACGCCGUUCGGAUCUGCACUUCCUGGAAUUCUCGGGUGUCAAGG` is reported as -0.771.
`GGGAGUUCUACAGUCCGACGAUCAGUCCUGUGCUACACAUCGUAUGUACCGAAUCAAAUUUAAAUUUUUAAACCCCCAAAAAAGUAUUAUGUUACGCCGUUCGGAUCUGCACUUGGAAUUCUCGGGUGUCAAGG` has a log2 enrichment of 0.0664.
With `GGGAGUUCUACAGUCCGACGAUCCACAGACAACACGCACCCACACAGUCACAGAGGGAAGGGGUUGGGAUGGGGACAGGGUGCACAGCAGGGCGGGGUAGGACCCCAGCCCCUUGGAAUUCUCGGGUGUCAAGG` the log2 enrichment was 1.39.

Excerpt of the above (study 4):
`L94S`: “relative binding score” 4.19%.
`S140E` — result for “relative binding score”: -4.6%.
`G108V` — result for “relative binding score”: -9.62%.
`S11R`: “relative binding score” 40.9%.
For `A158T`, “relative binding score” read 86%.
`A30S`: “relative binding score” 79.2%.
`R74G`: “relative binding score” -7.16%.
`P50L`: “relative binding score” -9.26%.
`N61G`: “relative binding score” 46.2%.
`D3P` — result for “relative binding score”: 75%.
`H55N`: “relative binding score” 65.8%.
`F157R` — result for “relative binding score”: 3.64%.
`S104Y` — result for “relative binding score”: -17.5%.
`F103L`: “relative binding score” -3.37%.
Under “relative binding score”, `V142S` is recorded as 69.4%.
For `S27T`, “relative binding score” read 5.64%.
